Measured values from different studies.
Parts stem from different laboratories: compare values within a part only. Several values in a cell are separate wells, animals, samples, runs or records. Changes are numbered by the printed parent chain.
Chain of UniProt P10721 (whole entry, unmodified, looked up): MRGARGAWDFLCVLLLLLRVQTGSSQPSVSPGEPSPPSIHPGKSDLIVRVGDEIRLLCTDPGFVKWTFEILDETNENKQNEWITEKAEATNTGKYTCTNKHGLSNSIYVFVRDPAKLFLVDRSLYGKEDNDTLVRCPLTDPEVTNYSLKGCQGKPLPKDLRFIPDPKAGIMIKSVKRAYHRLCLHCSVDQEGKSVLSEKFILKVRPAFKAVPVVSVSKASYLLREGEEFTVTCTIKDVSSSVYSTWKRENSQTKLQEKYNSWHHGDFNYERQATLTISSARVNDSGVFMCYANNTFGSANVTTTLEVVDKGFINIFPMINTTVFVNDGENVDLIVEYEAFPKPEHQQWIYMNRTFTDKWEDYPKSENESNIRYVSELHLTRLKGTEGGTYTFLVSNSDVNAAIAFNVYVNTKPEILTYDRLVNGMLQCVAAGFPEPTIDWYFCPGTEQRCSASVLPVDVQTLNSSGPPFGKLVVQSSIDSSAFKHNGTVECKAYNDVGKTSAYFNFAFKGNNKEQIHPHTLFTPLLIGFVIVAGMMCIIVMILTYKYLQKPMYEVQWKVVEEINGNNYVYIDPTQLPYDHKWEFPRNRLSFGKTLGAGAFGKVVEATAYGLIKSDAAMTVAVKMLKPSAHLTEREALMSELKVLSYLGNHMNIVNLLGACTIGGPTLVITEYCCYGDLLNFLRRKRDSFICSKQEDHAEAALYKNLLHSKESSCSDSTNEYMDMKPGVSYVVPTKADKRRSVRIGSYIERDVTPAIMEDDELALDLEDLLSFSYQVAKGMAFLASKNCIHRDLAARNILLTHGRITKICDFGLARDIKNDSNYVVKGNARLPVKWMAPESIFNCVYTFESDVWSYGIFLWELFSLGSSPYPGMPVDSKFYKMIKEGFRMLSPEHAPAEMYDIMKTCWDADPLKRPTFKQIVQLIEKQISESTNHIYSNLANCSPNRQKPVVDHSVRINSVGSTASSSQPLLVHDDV
Chain of UniProt Q9NRH2 (whole entry, looked up): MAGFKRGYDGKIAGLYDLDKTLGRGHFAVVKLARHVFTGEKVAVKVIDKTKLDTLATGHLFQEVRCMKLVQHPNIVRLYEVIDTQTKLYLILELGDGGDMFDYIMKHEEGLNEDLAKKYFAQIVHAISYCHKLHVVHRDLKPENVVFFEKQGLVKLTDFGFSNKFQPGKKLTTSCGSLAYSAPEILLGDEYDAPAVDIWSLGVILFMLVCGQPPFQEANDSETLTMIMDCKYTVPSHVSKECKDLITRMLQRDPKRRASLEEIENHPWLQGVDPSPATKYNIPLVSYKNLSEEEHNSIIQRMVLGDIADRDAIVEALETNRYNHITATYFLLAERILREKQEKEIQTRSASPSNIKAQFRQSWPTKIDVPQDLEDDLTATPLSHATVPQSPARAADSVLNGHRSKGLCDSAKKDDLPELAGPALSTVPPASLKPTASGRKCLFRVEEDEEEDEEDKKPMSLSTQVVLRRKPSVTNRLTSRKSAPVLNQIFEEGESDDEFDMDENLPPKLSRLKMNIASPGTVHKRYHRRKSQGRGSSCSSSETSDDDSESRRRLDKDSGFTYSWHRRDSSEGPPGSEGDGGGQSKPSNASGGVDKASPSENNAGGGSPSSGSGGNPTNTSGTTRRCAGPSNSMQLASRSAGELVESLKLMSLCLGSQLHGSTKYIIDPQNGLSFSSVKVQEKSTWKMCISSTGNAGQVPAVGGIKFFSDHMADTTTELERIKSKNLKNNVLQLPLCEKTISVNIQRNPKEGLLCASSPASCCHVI
Chain of UniProt Q9H2G2 (whole entry, looked up): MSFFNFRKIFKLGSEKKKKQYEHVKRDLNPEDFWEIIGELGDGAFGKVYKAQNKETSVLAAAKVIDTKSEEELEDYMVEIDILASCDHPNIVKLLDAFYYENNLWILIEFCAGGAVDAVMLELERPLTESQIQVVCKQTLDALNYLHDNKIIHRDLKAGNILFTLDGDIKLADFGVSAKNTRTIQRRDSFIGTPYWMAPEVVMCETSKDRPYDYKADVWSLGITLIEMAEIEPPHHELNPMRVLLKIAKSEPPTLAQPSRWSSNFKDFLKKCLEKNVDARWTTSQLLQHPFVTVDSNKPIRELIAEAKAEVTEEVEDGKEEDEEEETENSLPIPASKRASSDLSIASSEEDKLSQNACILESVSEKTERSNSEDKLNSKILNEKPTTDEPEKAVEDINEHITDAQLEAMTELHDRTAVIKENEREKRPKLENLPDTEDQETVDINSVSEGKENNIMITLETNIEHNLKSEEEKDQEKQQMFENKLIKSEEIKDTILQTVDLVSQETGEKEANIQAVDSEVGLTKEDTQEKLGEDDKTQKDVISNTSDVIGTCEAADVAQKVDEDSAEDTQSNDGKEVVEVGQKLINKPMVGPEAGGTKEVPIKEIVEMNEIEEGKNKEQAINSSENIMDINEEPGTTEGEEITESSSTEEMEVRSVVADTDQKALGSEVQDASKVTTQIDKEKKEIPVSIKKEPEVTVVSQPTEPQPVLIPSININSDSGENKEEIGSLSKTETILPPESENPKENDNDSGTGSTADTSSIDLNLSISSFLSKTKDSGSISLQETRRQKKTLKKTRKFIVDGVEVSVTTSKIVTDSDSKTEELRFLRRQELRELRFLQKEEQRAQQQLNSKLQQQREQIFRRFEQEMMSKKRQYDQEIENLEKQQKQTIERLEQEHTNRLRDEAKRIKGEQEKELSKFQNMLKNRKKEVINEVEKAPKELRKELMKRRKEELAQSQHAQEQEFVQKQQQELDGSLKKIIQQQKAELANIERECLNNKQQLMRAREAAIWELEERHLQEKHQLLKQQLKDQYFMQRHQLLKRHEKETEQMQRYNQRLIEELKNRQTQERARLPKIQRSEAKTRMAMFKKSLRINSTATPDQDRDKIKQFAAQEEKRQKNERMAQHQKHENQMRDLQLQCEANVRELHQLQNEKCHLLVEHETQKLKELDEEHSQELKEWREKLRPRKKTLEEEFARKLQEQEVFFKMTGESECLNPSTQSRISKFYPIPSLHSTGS
Chain of UniProt P68400 (whole entry, looked up): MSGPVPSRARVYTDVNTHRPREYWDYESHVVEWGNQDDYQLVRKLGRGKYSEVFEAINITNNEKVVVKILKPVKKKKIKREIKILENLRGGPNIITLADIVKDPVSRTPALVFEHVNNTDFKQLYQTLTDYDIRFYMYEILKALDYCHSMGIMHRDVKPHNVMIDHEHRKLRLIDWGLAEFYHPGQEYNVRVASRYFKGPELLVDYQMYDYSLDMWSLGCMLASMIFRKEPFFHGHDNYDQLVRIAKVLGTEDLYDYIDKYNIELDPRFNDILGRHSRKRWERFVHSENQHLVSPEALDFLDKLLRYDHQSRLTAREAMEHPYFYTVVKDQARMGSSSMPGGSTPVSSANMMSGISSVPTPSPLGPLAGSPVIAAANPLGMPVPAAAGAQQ
Chain of UniProt O15146 (whole entry, looked up): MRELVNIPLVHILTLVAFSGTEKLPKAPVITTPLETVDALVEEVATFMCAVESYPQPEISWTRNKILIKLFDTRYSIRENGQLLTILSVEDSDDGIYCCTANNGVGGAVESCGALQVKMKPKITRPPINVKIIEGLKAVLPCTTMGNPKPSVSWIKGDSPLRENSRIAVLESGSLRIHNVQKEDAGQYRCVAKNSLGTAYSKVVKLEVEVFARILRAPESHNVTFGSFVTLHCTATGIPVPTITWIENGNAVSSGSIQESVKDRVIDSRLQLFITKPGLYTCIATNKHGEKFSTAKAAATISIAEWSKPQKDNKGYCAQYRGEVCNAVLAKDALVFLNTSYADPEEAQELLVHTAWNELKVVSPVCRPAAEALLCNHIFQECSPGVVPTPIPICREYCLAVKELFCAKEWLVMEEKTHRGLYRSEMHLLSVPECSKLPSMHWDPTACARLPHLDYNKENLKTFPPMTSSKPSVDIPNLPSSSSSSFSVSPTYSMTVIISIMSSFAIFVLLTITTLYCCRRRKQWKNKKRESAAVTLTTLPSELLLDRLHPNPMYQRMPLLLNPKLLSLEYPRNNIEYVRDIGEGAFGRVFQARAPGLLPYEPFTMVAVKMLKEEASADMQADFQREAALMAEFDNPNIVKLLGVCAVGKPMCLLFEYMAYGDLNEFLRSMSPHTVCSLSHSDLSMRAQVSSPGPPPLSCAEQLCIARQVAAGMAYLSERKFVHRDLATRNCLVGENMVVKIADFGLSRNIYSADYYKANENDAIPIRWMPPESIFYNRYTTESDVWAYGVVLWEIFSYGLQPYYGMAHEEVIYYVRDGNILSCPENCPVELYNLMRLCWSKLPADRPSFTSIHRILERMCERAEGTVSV
Chain of UniProt O14733 (whole entry, looked up): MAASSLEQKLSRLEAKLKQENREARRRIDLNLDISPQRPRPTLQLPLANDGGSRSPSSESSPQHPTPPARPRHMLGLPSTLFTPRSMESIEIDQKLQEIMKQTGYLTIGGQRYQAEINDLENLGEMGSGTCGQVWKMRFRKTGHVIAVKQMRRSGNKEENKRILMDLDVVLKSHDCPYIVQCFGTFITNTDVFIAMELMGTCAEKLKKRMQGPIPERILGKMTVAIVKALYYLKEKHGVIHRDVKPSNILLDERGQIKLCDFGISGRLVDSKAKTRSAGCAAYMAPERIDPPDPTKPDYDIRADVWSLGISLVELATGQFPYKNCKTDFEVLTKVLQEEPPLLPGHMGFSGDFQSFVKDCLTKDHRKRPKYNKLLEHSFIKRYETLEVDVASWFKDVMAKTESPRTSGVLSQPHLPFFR
Chain of UniProt Q9NY57 (whole entry, looked up): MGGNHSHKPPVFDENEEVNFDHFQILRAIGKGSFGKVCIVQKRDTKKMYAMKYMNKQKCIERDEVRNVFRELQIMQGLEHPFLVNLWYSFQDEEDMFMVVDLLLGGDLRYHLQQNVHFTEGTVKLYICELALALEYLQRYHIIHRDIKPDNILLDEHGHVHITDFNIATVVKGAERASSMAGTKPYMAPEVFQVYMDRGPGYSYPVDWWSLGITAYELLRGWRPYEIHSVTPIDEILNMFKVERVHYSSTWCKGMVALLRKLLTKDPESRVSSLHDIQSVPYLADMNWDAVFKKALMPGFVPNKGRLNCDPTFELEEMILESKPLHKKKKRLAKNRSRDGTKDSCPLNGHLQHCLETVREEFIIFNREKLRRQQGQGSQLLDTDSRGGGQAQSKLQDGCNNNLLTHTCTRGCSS

Series 1
Target: CCNE1, cyclin fold, Cln2 fusion (human)
Method: yeast growth competition, sequencing
Matrix: yeast
Setting: strong parent motif
Baseline: not given
Reading: higher = stronger binding
Endpoint: normalised enrichment score
Parent: viral docking peptide; YKVKRRLVFGADD; partner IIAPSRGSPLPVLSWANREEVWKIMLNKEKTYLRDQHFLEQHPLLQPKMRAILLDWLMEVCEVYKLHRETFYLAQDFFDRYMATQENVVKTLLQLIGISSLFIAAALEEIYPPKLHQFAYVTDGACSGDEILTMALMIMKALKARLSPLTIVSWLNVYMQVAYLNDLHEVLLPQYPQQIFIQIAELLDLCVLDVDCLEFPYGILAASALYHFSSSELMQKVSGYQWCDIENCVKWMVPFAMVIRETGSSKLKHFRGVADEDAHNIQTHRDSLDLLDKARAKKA
YKVKRRLVFGGDD [A11G]: 6.33
YKVKRRLVFGYDD [A11Y]: 5.89
YKVKRRLNFGADD [V8N]: 6.44
YEVKRRLVFGADD [K2E]: 5.57
YKWKRRLVFGADD [V3W]: 2.57
YKVSRRLVFGADD [K4S]: 4.3
YKVKRRLVMGADD [F9M]: 1.24
YKVYRRLVFGADD [K4Y]: 1.56

Series 2
SMILES: CNC(=O)c1ccc(-c2cnn3ccc(C(=O)N(C)c4ccc(Cl)c(C(=O)OC)c4)cc23)cc1
Organism: Cryptosporidium parvum
Method: time-kill
Strain: nanoluciferase-expressing
Baseline: DMSO
Endpoint: luminescence
9 nM, 48 h: 15.4% and 15.7%
3 nM, 0 h: 97.4% and 90.3% and 98% and 103% and 99.4% and 91.4% and 90.1% and 91.2%
9 nM, 4 h: 116% and 113%

Series 3
SMILES: Cn1cncc1[C@](O)(COc1ccc(C#N)cc1-c1ccc(OC(F)(F)F)cc1)c1ccc(C#N)cc1
Observed: cell-free assay
Method: competition with immobilised ligand
Tested at: 1 µM
Endpoint: remaining binding
Phosphatidylinositol 4,5-bisphosphate 3-kinase catalytic subunit alpha isoform (PIK3CA, Homo sapiens, UniProt P42336, E545K): 97%
Insulin receptor (INSR, Homo sapiens, UniProt P06213): 100%
SNF-related serine/threonine-protein kinase (SNRK, Homo sapiens, UniProt Q9NRH2): 100%
SRSF protein kinase 2 (SRPK2, Homo sapiens, UniProt P78362): 100%
Epidermal growth factor receptor (EGFR, Homo sapiens, UniProt P00533, G719C): 82%
STE20-like serine/threonine-protein kinase (SLK, Homo sapiens, UniProt Q9H2G2): 90%
Dual specificity mitogen-activated protein kinase kinase 7 (MAP2K7, Homo sapiens, UniProt O14733): 100%
Receptor tyrosine-protein kinase erbB-3 (ERBB3, Homo sapiens, UniProt P21860): 87%
TRAF2 and NCK-interacting protein kinase (TNIK, Homo sapiens, UniProt Q9UKE5): 81%
Casein kinase II subunit alpha (CSNK2A1, Homo sapiens, UniProt P68400): 63%
Mitogen-activated protein kinase 1 (MAPK1, Homo sapiens, UniProt P28482): 90%
Muscle, skeletal receptor tyrosine-protein kinase (MUSK, Homo sapiens, UniProt O15146): 93%
Mast/stem cell growth factor receptor Kit (KIT, Homo sapiens, UniProt P10721, A829P): 79%
Mast/stem cell growth factor receptor Kit (KIT, Homo sapiens, UniProt P10721, L576P): 100%
Serine/threonine-protein kinase 32B (STK32B, Homo sapiens, UniProt Q9NY57): 100%

Series 4
Target: tungstate, free oxyanion
Method: microfluidic competitive inhibition
Matrix: in vitro, cell-free expressed
Tested at: not given
Setting: derived from inhibition constants, unchanged parent 2230 nM
Reading: lower = stronger binding
Endpoint: oxyanion analog dissociation constant
Parent: PafA, mature enzyme, eGFP fusion (Elizabethkingia meningoseptica, UniProt Q9KJX5); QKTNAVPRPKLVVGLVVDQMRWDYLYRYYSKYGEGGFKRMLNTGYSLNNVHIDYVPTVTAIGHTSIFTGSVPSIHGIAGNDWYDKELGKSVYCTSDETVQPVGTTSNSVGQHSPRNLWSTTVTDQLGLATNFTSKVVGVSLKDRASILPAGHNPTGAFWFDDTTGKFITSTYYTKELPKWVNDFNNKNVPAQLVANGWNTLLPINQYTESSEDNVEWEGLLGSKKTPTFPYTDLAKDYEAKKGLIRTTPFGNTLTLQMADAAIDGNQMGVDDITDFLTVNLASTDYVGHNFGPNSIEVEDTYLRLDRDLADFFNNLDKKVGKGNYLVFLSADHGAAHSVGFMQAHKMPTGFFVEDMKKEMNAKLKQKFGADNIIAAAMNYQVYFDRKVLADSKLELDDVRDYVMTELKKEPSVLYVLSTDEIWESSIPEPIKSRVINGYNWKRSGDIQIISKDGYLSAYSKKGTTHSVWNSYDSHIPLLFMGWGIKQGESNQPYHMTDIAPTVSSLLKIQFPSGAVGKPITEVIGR
D96V: 1.37 µM
T253V: 1.36 µM
F328G: 1.58 µM
V399A: 2.1 µM
T232V: 2.48 µM
D300V: 673 nM
L277V: 2.32 µM
F132V: 1.35 µM

Further values, each from its own experiment
Cc1sc2c(c1C)C(c1ccc(Cl)cc1)=N[C@H](CC(=O)OC(C)(C)C)c1nnc(C)n1-2  nuclear SOX9 intensity (mouse MPNST tumor cells; high-content immunofluorescence imaging, item: nuclear SOX9; 10 µM, 12 h, mean of 2 replicates; baseline: DMSO control, higher = more nuclear SOX9): 134 % of DMSO
NC(=O)CN1CCCC1=O  viability (A-375; 100 µM, 18 h): 87.7%

For quick reference, copied from above (series 3):
Phosphatidylinositol 4,5-bisphosphate 3-kinase catalytic subunit alpha isoform (PIK3CA, Homo sapiens, UniProt P42336, E545K): 97%
Insulin receptor (INSR, Homo sapiens, UniProt P06213): 100%
SNF-related serine/threonine-protein kinase (SNRK, Homo sapiens, UniProt Q9NRH2): 100%
